Experimental data gathered from unrelated publications.
Lines come from different studies, so protocols differ. Numbers after ± are the reported error.
LRRC8A/LRRC8C E6A: LRRC8A/LRRC8C (Homo sapiens, UniProt Q8IWT6+Q8TDW0, E6A)
Nicotinic acetylcholine receptor alpha9/alpha10: Nicotinic acetylcholine receptor alpha9/alpha10 (Rattus norvegicus, UniProt P43144+Q9JLB5)

SMILES	target	test	system	conditions	Hill coefficient
N=C(N)Nc1nc2ccccc2[nH]1	HVCN1 (Homo sapiens, UniProt Q96D96, F150A/F182A)	proton current, inhibitor, inside-out patch clamp			0.88 ± 0.02
O=C(Nc1cccc2c(=O)cc(-c3nnn[nH]3)oc12)c1ccc(OCCCCc2ccccc2)cc1	LRRC8A/LRRC8C E6A	whole-cell patch clamp	HCT116 LRRC8-/- expressing heteromers	+100 mV	1.39
O=C1Nc2c(ccc(Cl)c2Cl)C1=NO	KCNN4/CALM1 (Homo sapiens, UniProt O15554+P0DP23)	ion current, activator, whole-cell patch clamp	HEK293	together with: 3 µM free calcium	1
COc1cc(C(=O)NS(=O)(=O)c2ccccc2C)ccc1Cc1cn(C)c2ccc(NC(=O)OC3CCCC3)cc12	LRRC8A/LRRC8C E6A	whole-cell patch clamp	HCT116 LRRC8-/- transfected	at +100 mV	1.39
Cc1ccc(NC(=O)/C=C/c2cccs2)cc1	Nicotinic acetylcholine receptor alpha9/alpha10	inhibitor		together with: ACh 100 µM	1.7 ± 0.2
Nc1nc2c(ncn2[C@@H]2O[C@@H]3COP(=O)(O)O[C@H]3[C@H]2O)c(=O)[nH]1	Cone cGMP-gated channel (Morone saxatilis, UniProt Q3I0N1+Q3I0N2)	channel current, agonist, suction electrode	cone outer segments	together with: 5 µM Ca2+	2.19 ± 0.39
[Cl-].[Cl-].[Zn+2]	HVCN1 (Homo sapiens, UniProt Q96D96, E119H)	whole-cell voltage clamp		120 mV, open probability 0.3	1.4
N#Cc1ccc2[nH]cc(CCCCN3CCN(c4ccc5oc(C(N)=O)cc5c4)CC3)c2c1	SLC6A4 (Homo sapiens, UniProt P31645, F556A/Y95F)	[3H]5-HT uptake, inhibitor	COS-7		1.1 ± 0.14
Cc1ccc(N(C)C(=O)/C=C/c2ccco2)cc1	Nicotinic acetylcholine receptor alpha9/alpha10	inhibitor		together with: ACh 10 µM	1.6 ± 0.2
c1ccc(C(NCc2cccnc2)(c2ccccc2)c2ccccc2)cc1	KCNQ1 (Homo sapiens, UniProt P51787)	ion current, inhibitor, whole-cell patch clamp	tsA201	tail current, no correction	0.83
Cc1nccn1CC1CCc2c(c3ccccc3n2C)C1=O (centres unmarked)	Htr3a (Mus musculus, UniProt P23979, W90X)	antagonist, voltage clamp	Xenopus oocytes		-1.3 ± 0.1

Repeated from above:
SMILES	target	test	system	conditions	Hill coefficient
Cc1ccc(N(C)C(=O)/C=C/c2ccco2)cc1	Nicotinic acetylcholine receptor alpha9/alpha10	inhibitor		together with: ACh 10 µM	1.6 ± 0.2
N=C(N)Nc1nc2ccccc2[nH]1	HVCN1 (Homo sapiens, UniProt Q96D96, F150A/F182A)	proton current, inhibitor, inside-out patch clamp			0.88 ± 0.02
